Measured values gathered from unrelated publications.
Numbered parts are unrelated; each lists some results of a single study.

Sample 1 — method: protein binding microarray; form: double-stranded DNA, one strand shown; matrix: in vitro; tested at: not given; baseline: not given; direction: higher = stronger binding
Target: Histone acetyltransferase KAT6A, winged helix 1, GST fusion (KAT6A, Homo sapiens, UniProt Q92794, residues 1-85)
Notes: 8-mer, flanks averaged, mean of 2 arrays, mostly near background
Target sequence (chain): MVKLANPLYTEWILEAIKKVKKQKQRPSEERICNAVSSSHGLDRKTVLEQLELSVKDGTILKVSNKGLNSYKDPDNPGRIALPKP
| Oligonucleotide | E-score |
| --- | --- |
| ATCCGTTC | 0.116 |
| CCAACTCC | -0.127 |
| AAACAACG | 0.0447 |
| ACGCGACT | 0.0652 |
| CAACAGTG | -0.151 |
| ACCCGACC | 0.168 |
| AAGCATCA | -0.17 |

Sample 2 — method: universal PBM; form: double-stranded DNA, one strand shown; matrix: in vitro; tested at: not given; direction: higher = stronger binding
Target: Sal-like protein 4, full length isoform B (SALL4, Homo sapiens, UniProt Q9UJQ4-2, residues 1-616)
Notes: 8-mer, flanks averaged, mean of replicates
| Oligonucleotide | E-score |
| --- | --- |
| ACCCGCAA | -0.197 |
| CTGTACCA | -0.0348 |
| CAAGGGGG | -0.222 |
| CATCAAAG | -0.0572 |
| GACCTGCC | -0.324 |

Sample 3 — method: protein-binding microarray; form: double-stranded DNA, one strand shown; matrix: in vitro; tested at: 940 nM top; notes: 60-bp whole probe; with: salmon DNA 0.4 mg/ml; baseline: random background probes; direction: higher = stronger binding; constant ends, left off below: GCCTAGCAC … GTCTTGATTCGCTTGACGCTGCTG
Target: Interferon regulatory factor 5, full length, phosphomimetic (IRF5, Homo sapiens, UniProt Q13568-2, residues 1-514, S451D/S453D/S456D/S462D)
| Oligonucleotide | fitted relative affinity |
| --- | --- |
| TTAGATTTCGGGACTGGAGTAGTGCTA | 0.341 z-score |
| GACCTTTTTAAGATCTGTGCGTGCTAG | -0.0394 z-score |
| TACTGTGTGCATCTATCTTAGTGCTAG | -0.196 z-score |
| TTAGCTTTCGGGTTTCGATTAGTGCTA | 6.59 z-score |
| GAGGGACTGCTTATCCTGACGTGCTAG | -0.533 z-score |
| GCTGACACTAACACAGTGGTGTGCTAG | -0.55 z-score |
| GACGGACTGCTACTTCTGACGTGCTAG | -0.243 z-score |

Other studies, line by line
| Molecule | target | test | test system | setting | how to read | measurement | value |
| --- | --- | --- | --- | --- | --- | --- | --- |
| PhoQ, residues 284 288 289 292 302 303 SIHMAM | PhoP, residues 12 14 15 18 19 AQALL (Escherichia coli, UniProt P23836) | Sort-seq, refers to: YFP reporter | E. coli | PhoQ-PhoP variant library, with: 10 µM Mg2+ | baseline: high Mg2+ state, higher = stronger signaling | fold induction | 10.3 |

For quick reference, copied from above (sample 3):
| Oligonucleotide | fitted relative affinity |
| --- | --- |
| TTAGATTTCGGGACTGGAGTAGTGCTA | 0.341 z-score |
| GACGGACTGCTACTTCTGACGTGCTAG | -0.243 z-score |
